Published values collected from several papers.
Values joined by “and” are separate records of one study, mostly repeats; a detail may differ. Numbers after ± are the reported error.

C=CCOc1ccc2c(C)c(Br)c(=O)oc2c1C
IC50 (PAM212; cell growth; 4 to 5 days, together with: UVA 1.28 J/cm^2): 5 µM

CC[n+]1c(/C=C/N(C)c2ccccc2)n(-c2ccccc2)c2ccc(-c3nc4ccccc4s3)cc21
IC50 (HeLa expressing Ub(G76V)-GFP; Ub(G76V)-GFP degradation, inhibitor, cycloheximide chase): 10 ± 2 µM

CC(=O)Oc1c(CC(Br)CBr)cc2c(C)c(Br)c(=O)oc2c1C (centres unmarked)
IC50 (PAM212; cell growth; 4 to 5 days, together with: UVA 1.28 J/cm^2): 48 µM

CCCC[C@H](NC(=O)/C=C(\C)c1ccc(C(F)(F)P(=O)(OCOC(=O)C(C)(C)C)OCOC(=O)C(C)(C)C)cc1)C(=O)N1C[C@H]2C[C@H]2[C@H]1C(=O)N[C@@H](CCC(N)=O)C(C)OCc1ccccc1 (some centres unmarked)
IC50 (MDA-MB-468; cell growth, MTT; 72 h, 10% FBS): 10 to 15 µM

COc1ccc(N2CCN(CC(=O)Nc3ccc(C4=NN(C(C)=O)C(c5ccccc5)C4)cc3)CC2)cc1 (centres unmarked)
IC50 (HCT-116, PC-3, MCF7, MDA-MB-231 average; MTT): 31 µM

COC(=O)c1cc(CN2CCN(C(=N)N)CC2)cc(C(=O)N2CCN(C(=O)c3ccc(C(=N)N)cc3)CC2)c1
IC50 (mouse F9 cells; CHRM4 and SCN3A gene activation, activator, qRT-PCR, item: CHRM4 and SCN3A mRNA; 24 h): 3.74 µM

CC12CC3CC(C)(C1)CC(NC(=O)C[C@H]1Oc4ccccc4C(=O)[C@]1(C)[N+](=O)[O-])(C3)C2
IC50 (DU-145; cell growth or viability, SRB; 96 h): 5.41 µM

CC1(C)C2CCC(CN=C(N)CSS(=O)(=O)O)C1C2 (centres unmarked)
IC50 (HEK-293T; qRT-PCR, item: DUSP11 mRNA; 5 h): ~75 µM

Cc1c(C(=O)/C=C/c2cc3ccccc3o2)nnn1-c1c(Cl)cc(Cl)cc1Cl
IC50 (THLE-2; cell growth or viability, MTT): 45.8 µM

O=c1[nH]cc(F)c(=O)[nH]1
IC50 (GES1; cell growth or viability, SRB; 72 h): 140 µM

S=C([S][Au-][P+](CCCCCC[P+]([Au-][S]C(=S)n1ncc2ccccc21)(c1ccccc1)c1ccccc1)(c1ccccc1)c1ccccc1)n1ncc2ccccc21
IC50 (PHA-P stimulated human PBMC; cell growth, MTT; 3 d): 30.2 ± 11.1 µM

O=C1C(=Cc2ccccc2)CN(C(=O)C=CC(=O)N2CC(=Cc3ccccc3)C(=O)C(=Cc3ccccc3)C2)CC1=Cc1ccccc1
IC50 (MOLT-4/C8 and CEM cells; cytotoxicity): 6.08 µM

CCn1c(=O)/c(=C2\Sc3cc(Cl)ccc3N2C)s/c1=C\c1scc[n+]1Cc1ccccc1
IC50 (dox-inducible reporter cells; Hsp70-CHIP interaction, NanoBiT luminescence; 6 h; reference: DMSO): 2.9 ± 0.6 µM

CC(NC1=NS(=O)(=O)c2cc(F)ccc2N1)c1ccccc1 (centres unmarked)
IC50 (MDA-MB-468; cell growth or viability, MTS; 72 h): 4.17 µM

CC(=O)N1N=C(c2ccc(NC(=O)CN3CCN(c4ccc(Cl)cc4)CC3)cc2)CC1c1ccccc1 (centres unmarked)
IC50 (HCT-116, PC-3, MCF7, MDA-MB-231 average; MTT): 79 µM

C=CCc1ccc(O)c(-c2ccc(O)c(CC=C)c2)c1
IC50 (UACC-903; cell proliferation, MTS; 24 h, together with: 10 µM BLM): 7.94 µM

CNC(=O)c1cc(Oc2ccc(NC(=O)Nc3ccc(Cl)c(C(F)(F)F)c3)cc2)ccn1
IC50 (TF-1 expressing FLT3-ITD; ERK activity inhibition, ex vivo, inhibitory Emax model; plasma; adjusted for N-oxide metabolite potency): 0.0857 µg/mL

COc1cc(-c2nc3ccc(C(=O)Nc4ccccc4F)cc3[nH]2)cc(OC)c1OC
IC50 (MRC5; cell growth or viability, MTT; 72 h): 10.6 µM

CNC(=O)c1cc(Oc2ccc(NC(=O)Nc3ccc(Cl)c(C(F)(F)F)c3)cc2)ccn1
IC50 (MHCC97H; cell proliferation, MTT; 48 h, miR-140-3p plus inhibitor): 1.01 ± 0.29 µM

O=C(O)c1ccc(-n2nc(-c3ccccc3O)nc2-c2ccccc2O)cc1
IC50 (MRC5; cell growth or viability, resazurin; 72 h): ~180 µM

CNc1nc(Nc2ccc(-n3cnc(C)n3)c(OC)c2)nc2c1CC[C@H]2c1ccc(F)cc1
IC50 (H4-APPsw; amyloid beta 1-40 secretion, HTRF, item: amyloid beta 1-40; overnight): 0.0253 µM

C[C@]1([N+](=O)[O-])C(=O)c2ccccc2O[C@@H]1CC(=O)NCC1CCCCC1
IC50 (DU-145; cell growth or viability, SRB; 96 h): 4.22 µM

COc1cc([C@@H]2c3cc4c(cc3[C@@H](O[C@@H]3O[C@@H]5CO[C@@H](C)O[C@H]5[C@H](O)[C@H]3O)[C@H]3COC(=O)[C@H]23)OCO4)cc(OC)c1O
IC50 (human iPSC-derived sensory neurons; cell viability, resazurin reduction; 48 h): 3.2 µM

COc1ccc2c(c1)C(=O)[C@](C)([N+](=O)[O-])[C@@H](CC(=O)NC13CC4CC(CC(C4)C1)C3)O2
IC50 (DU-145; cell growth or viability, SRB; 96 h): 2.62 µM

COc1cccc2cc(C=C3C(=O)Nc4ccccc43)c(Cl)nc12
IC50 (A2780; cell growth or viability, MTT; 72 h): 32 µM

Nc1cc2c(cc1[N+](=O)[O-])[nH]c1c(-c3ccccc3)nccc12
IC50 (MDA-MB-468; cytotoxicity, MTT; 3 h exposure, 96 h total): > 100 µM

C=CC[C@@H]1/C=C(\C)C[C@H](C)C[C@H](OC)[C@H]2O[C@@](O)(C(=O)C(=O)N3CCCC[C@H]3C(=O)O[C@H](/C(C)=C/[C@@H]3CC[C@@H](O)[C@H](OC)C3)[C@H](C)[C@@H](O)CC1=O)[C@H](C)C[C@@H]2OC
IC50 (human astrocytes; C3 secretion, ELISA; together with: stimulated PBMC supernatant): > 1 µM

CC1(C)C2CC[C@@]1(C)C(=O)/C2=C/c1ccoc1
IC50 (GES1; cell growth or viability, SRB; 72 h): 265 µM

COc1ccc(CNC2=NS(=O)(=O)c3cc(F)ccc3N2)cc1
IC50 (MDA-MB-468; cell growth or viability, MTS; 72 h): > 50 µM

O=c1[nH]cc(F)c(=O)[nH]1
IC50 (ReNcell VM, differentiated astrocytic; cell viability, live/dead 3D alginate microarray; 24 h exposure plus 48 h, 6 days differentiation): 5.2 µM

Nc1nc2[nH]c(CCCc3ccc(C(=O)NCCCC(=O)O)s3)cc2c(=O)[nH]1
IC50 (KB cells; cell growth; together with: folic acid 200 nM): > 1 µM

CCCCc1nc2cc(/C=C/C(=O)NO)ccc2n1CCN(CC)CC
IC50 (primary AML blasts; cell proliferation, CellTiter-Glo; 48 h, highest FAB-type mean): 1.5 µM

Cc1c(Br)c(=O)oc2c(C)c(O)ccc12
IC50 (PAM212; cell growth; 4 to 5 days, together with: UVA 1.28 J/cm^2): 10 µM

O=S1(=O)N=C(NCc2ccc(C(F)(F)F)cc2)Nc2ccc(Br)cc21
IC50 (MDA-MB-468; cell growth or viability, MTS; 72 h): 16.1 µM

COc1cc(/C=C/C(O)=C/C(=O)/C=C/c2ccc(OC(=O)CCC(=O)OCc3ccccc3)c(OC)c2)ccc1O
IC50 (mouse Peritoneal macrophage; IL-6 release, inhibitor, ELISA; LPS-stimulated): 8.28 µM

O=C1Nc2ccccc2C1=Cc1cc2ccccc2nc1Cl
IC50 (A2780; cell growth or viability, MTT; 72 h): > 100 µM

COc1ccc(C=CC(=O)c2ccc(NC(=O)CN3CCN(c4ccc(OC)cc4)CC3)cc2)cc1
IC50 (HCT-116, PC-3, MCF7, MDA-MB-231 average; MTT): 26 µM

O=S1(=O)N=C(NCc2ccccc2)Nc2ccc(Br)cc21
IC50 (MDA-MB-468; cell growth or viability, MTS; 72 h): 30.8 µM

COc1ccc(N2CCN(CC(=O)Nc3ccc(C4=NN(C(C)=O)C(c5ccc(Br)cc5)C4)cc3)CC2)cc1 (centres unmarked)
IC50 (HCT-116, PC-3, MCF7, MDA-MB-231 average; MTT): 23 µM

COc1ccc2c(CC(=O)NCCCC[C@H](N)C(=O)N[C@@H](CCC(=O)O)C(=O)N[C@@H](Cc3ccc(CS(=O)(=O)O)cc3)C(=O)N[C@@H](CCC(=O)O)C(=O)N[C@@H](Cc3ccc(CS(=O)(=O)O)cc3)C(=O)N[C@@H](CC(C)C)C(=O)N[C@@H](CC(=O)O)C(=O)N[C@@H](Cc3ccc(CS(=O)(=O)O)cc3)C(=O)N[C@@H](CC(=O)O)C(=O)N[C@@H](Cc3ccccc3)C(=O)N[C@@H](CC(C)C)C(=O)N3CCC[C@H]3C(=O)N[C@@H](CCC(=O)O)C(=O)N[C@H](C(=O)N[C@@H](CCC(=O)O)C(=O)N3CCC[C@H]3C(=O)N[C@@H](CC(C)C)C(=O)O)[C@@H](C)O[C@H]3O[C@H](CO[C@@H]4O[C@H](CO)[C@@H](O[C@@H]5O[C@H](CO)[C@H](O)[C@H](O[C@]6(C(=O)O)C[C@H](O)[C@@H](NC(C)=O)[C@H]([C@H](O)[C@H](O)CO)O6)[C@H]5O)[C@H](O[C@@H]5O[C@@H](C)[C@@H](O)[C@@H](O)[C@@H]5O)[C@H]4NC(C)=O)[C@H](O)[C@H](O[C@@H]4O[C@H](CO)[C@H](O)[C@H](O)[C@H]4O)[C@H]3NC(C)=O)cc(=O)oc2c1
IC50 (human monocytes; monocyte capture under shear flow, inhibitor; ICAM-1/P-selectin substrate; shear 2 dyn/cm2): 3 µM

O=C(CN1CCN(c2ccc(Cl)cc2)CC1)Nc1ccc(C(=O)C=Cc2ccco2)cc1
IC50 (HCT-116, PC-3, MCF7, MDA-MB-231 average; MTT): 7 µM

Cc1c(C)c(C)[c-](C)c1C.Fc1ccc[c-]c1-c1ccccn1.[Cl-].[Ir+3]
IC50 (A2780 cells; cell growth, SRB; 24 h exposure, 72 h recovery): 2.7 µM and 4.5 µM

C[C@]1([N+](=O)[O-])C(=O)c2ccccc2O[C@@H]1CC(=O)Nc1ncccn1
IC50 (DU-145; cell growth or viability, SRB; 96 h): > 50 µM

Nc1ccn([C@@H]2O[C@H](CO)[C@@H](O)C2(F)F)c(=O)n1
IC50 (AsPC-1 with ENG siRNA; 48 h, together with: ENG siRNA 2 for 24 h): 0.0245 µM

COc1cc(C2CC(c3ccc(NC(=O)CN4CCN(c5ccc(Cl)cc5)CC4)cc3)=NN2C(C)=O)cc(OC)c1OC (centres unmarked)
IC50 (HCT-116, PC-3, MCF7, MDA-MB-231 average; MTT): 43 µM

COc1ccc(CNC(=O)[C@@H]2CN(C(=O)CCl)CCN2S(=O)(=O)c2ccc(OC)cc2)cc1
IC50 (22Rv1; mRNA level, QuantiGene, item: AR-V7 mRNA; 6 h): > 50 µM

C=CC(=O)N1CC2CC(n3nc(-c4ccc(C(=O)Nc5ccccn5)cc4)c4c(N)ncnc43)CC2C1 (centres unmarked)
IC50 (TMD8; IL-6 secretion; 16 h): 0.0005 µM

COc1ccc(C(O)COc2ccc(-c3csc(-c4ccc(OCC(O)c5ccc(OC)c(OC)c5)cc4)n3)cc2)cc1OC (centres unmarked)
IC50 (LL/2; cell growth or viability, ATP luminescence): 0.512 µM

C[C@]1([N+](=O)[O-])C(=O)c2ccccc2O[C@@H]1CC(=O)Nc1ccccc1
IC50 (DU-145; cell growth or viability, SRB; 96 h): 20.3 µM

O=C1C(O)=C(Nc2ccccc2)C(=O)c2ccccc21
IC50 (mouse Peritoneal macrophage; cell growth or viability, MTT; 48 h): 316 µM

CC(C)C[C@H](NC(=O)[C@@H](NC(=O)c1cccc(-c2ccccc2)n1)[C@@H](C)O)B(O)O
IC50 (human astrocytes; C3 secretion, ELISA; together with: stimulated PBMC supernatant): < 0.025 µM

C#CCNC(=O)C[C@H]1Oc2ccccc2C(=O)[C@]1(C)[N+](=O)[O-]
IC50 (DU-145; cell growth or viability, SRB; 96 h): 38.2 µM

O=c1ccc2ccc(O)cc2o1
IC50 (PAM212; cell growth; 4 to 5 days, together with: UVA 1.28 J/cm^2): > 100 µM

A few entries again:
C[C@]1([N+](=O)[O-])C(=O)c2ccccc2O[C@@H]1CC(=O)Nc1ccccc1
IC50 (DU-145; cell growth or viability, SRB; 96 h): 20.3 µM

O=C1C(O)=C(Nc2ccccc2)C(=O)c2ccccc21
IC50 (mouse Peritoneal macrophage; cell growth or viability, MTT; 48 h): 316 µM

CC(C)C[C@H](NC(=O)[C@@H](NC(=O)c1cccc(-c2ccccc2)n1)[C@@H](C)O)B(O)O
IC50 (human astrocytes; C3 secretion, ELISA; together with: stimulated PBMC supernatant): < 0.025 µM

C#CCNC(=O)C[C@H]1Oc2ccccc2C(=O)[C@]1(C)[N+](=O)[O-]
IC50 (DU-145; cell growth or viability, SRB; 96 h): 38.2 µM
